Measured values from different studies.
A part holds a random share of what one study measured. Positions count from the first letter of the parent shown.
UniProt O23661, sequence (whole entry, looked up): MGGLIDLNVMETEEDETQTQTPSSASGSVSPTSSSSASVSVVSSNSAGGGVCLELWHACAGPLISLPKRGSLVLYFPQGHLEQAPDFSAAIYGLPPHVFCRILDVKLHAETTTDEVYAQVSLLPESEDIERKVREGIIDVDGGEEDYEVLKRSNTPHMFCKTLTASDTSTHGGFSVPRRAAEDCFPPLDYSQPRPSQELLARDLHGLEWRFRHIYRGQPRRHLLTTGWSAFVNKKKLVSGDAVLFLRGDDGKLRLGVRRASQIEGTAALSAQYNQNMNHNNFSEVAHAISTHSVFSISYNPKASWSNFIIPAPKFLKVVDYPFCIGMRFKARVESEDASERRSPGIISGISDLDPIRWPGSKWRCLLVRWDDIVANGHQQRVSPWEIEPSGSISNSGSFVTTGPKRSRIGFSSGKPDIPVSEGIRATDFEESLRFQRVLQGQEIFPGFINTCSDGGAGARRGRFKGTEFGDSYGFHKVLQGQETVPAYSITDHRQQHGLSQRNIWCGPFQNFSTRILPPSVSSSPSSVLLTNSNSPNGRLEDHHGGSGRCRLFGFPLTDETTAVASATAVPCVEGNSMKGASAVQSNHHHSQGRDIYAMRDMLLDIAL

Set 1 — target: CCNB3, cyclin fold, Cln2 fusion (human); technique: yeast growth competition, sequencing; medium: yeast; setting: weak parent motif; reference: not given; reading: higher = stronger binding
Parent: RB1 docking peptide (human); PKPLKKLRFDIEG
Substitution | normalised enrichment score
PKPLPKLRFDIEG [K5P] | 0.369
PKPLKKLRFDIRG [E12R] | -0.183
PKPLKKLRFPIEG [D10P] | 0.0796
PKPLKKLEFDIEG [R8E] | 0.079
SKPLKKLRFDIEG [P1S] | -0.287
PKPLKKLYFDIEG [R8Y] | 0.17
PKPLKKLRFDIHG [E12H] | -0.335
PKPLKKLRFDIAG [E12A] | -0.161
PKPLKKCRFDIEG [L7C] | 0.221
GKPLKKLRFDIEG [P1G] | 0.45

Set 2 — technique: DHFR PCA, deep sequencing; medium: yeast; together with: (+)-ABA 1.4 µM; reference: wild-type fitted maximum; reading: higher = stronger binding
Target: ABI1, truncated, D143A, DHFR fusion (Arabidopsis thaliana)
Setting: methotrexate growth selection, single substitutions
Parent: PYL1, truncated, DHFR fusion (Arabidopsis thaliana); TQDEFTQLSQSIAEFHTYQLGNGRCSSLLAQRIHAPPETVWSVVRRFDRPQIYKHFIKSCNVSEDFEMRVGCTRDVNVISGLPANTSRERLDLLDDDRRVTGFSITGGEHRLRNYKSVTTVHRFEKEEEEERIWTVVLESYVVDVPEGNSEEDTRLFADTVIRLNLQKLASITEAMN
Substitution | relative binding score [%]
S63W | -10.1
R163W | -6.34
S59K | 26.2
Q51G | 2
V161E | 2.99

Set 3 — technique: RNAcompete; form: RNA; medium: in vitro; tested at: 20 nM; setting: 7-mer, probes averaged, single round; reference: mean of 7-mers; reading: higher = stronger binding
Target: PABPC1L2, full length, GST fusion (mouse, UniProt A0ABA7IW68)
Target sequence (chain): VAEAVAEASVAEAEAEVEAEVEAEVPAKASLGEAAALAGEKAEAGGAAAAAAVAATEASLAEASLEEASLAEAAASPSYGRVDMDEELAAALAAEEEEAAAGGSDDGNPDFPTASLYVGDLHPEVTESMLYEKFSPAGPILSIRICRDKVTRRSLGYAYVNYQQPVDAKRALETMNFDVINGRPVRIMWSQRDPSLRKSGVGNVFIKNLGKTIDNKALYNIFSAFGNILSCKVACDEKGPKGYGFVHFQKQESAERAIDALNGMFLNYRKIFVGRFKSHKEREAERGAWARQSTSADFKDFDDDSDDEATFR
Oligonucleotide | 7-mer Z-score
GAUUGGC | -0.0863
AAGCAUA | 0.155
AUUGACC | 0.0334
CGUAAAG | 0.158
CGUUUCC | -0.44
UUGCAGA | -0.0881
UGCAGCA | -0.191

Mixed results
B1: ARF1 538-665 (Arabidopsis thaliana, UniProt Q8L7G0); chain SRQIRSCTKVHMQGSAVGRAIDLTRSECYEDLFKKLEEMFDIKGELLESTKKWQVVYTDDEDDMMMVGDDPWNEFCGMVRKIFIYTPEEVKKLSPKNKLAVNARMQLKADAEENGNTEGRSSSMAGSR
Molecule | target or system | test | system | setting | scale | endpoint | value
B1 (ARF1 538-665) | ETT (Arabidopsis thaliana, UniProt O23661) | two-hybrid | – | – | reference: out of 4 tests, higher = firmer interaction | positive tests | 0
PhoQ, residues 284 288 289 292 302 303 ASHLAV | PhoP, residues 12 14 15 18 19 NHFRA (Escherichia coli, UniProt P23836) | Sort-seq, measured: YFP reporter | E. coli | PhoQ-PhoP variant library, together with: 10 µM Mg2+ | reference: high Mg2+ state, higher = stronger signaling | fold induction | 0.823

A few entries again (set 3):
Oligonucleotide | 7-mer Z-score
CGUAAAG | 0.158
CGUUUCC | -0.44
UUGCAGA | -0.0881
